Measurements collected from several papers.
Every numbered part comes from another study and shows a few of its results, in no order.
UniProt Q7KZI7, sequence (whole entry, looked up): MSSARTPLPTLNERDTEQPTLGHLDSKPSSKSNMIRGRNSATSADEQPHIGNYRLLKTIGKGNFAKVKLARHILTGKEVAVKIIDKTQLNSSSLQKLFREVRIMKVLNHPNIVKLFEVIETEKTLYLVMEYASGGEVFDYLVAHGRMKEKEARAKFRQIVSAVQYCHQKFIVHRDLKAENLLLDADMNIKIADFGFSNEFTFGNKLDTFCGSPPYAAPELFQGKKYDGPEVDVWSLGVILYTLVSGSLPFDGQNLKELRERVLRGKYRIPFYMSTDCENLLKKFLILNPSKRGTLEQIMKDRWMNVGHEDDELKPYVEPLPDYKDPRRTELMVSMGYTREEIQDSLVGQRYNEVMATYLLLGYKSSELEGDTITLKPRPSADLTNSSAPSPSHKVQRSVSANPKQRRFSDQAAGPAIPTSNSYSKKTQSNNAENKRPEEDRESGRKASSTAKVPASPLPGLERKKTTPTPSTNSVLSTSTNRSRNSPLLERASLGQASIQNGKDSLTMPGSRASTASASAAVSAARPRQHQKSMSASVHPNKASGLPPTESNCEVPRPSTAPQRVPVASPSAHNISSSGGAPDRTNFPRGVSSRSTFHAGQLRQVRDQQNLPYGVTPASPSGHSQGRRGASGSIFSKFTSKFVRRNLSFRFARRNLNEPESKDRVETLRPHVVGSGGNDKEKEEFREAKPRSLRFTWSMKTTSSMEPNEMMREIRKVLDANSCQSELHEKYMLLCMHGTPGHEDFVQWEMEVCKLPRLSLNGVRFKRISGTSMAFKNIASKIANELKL
UniProt Q96L34, sequence (whole entry, looked up): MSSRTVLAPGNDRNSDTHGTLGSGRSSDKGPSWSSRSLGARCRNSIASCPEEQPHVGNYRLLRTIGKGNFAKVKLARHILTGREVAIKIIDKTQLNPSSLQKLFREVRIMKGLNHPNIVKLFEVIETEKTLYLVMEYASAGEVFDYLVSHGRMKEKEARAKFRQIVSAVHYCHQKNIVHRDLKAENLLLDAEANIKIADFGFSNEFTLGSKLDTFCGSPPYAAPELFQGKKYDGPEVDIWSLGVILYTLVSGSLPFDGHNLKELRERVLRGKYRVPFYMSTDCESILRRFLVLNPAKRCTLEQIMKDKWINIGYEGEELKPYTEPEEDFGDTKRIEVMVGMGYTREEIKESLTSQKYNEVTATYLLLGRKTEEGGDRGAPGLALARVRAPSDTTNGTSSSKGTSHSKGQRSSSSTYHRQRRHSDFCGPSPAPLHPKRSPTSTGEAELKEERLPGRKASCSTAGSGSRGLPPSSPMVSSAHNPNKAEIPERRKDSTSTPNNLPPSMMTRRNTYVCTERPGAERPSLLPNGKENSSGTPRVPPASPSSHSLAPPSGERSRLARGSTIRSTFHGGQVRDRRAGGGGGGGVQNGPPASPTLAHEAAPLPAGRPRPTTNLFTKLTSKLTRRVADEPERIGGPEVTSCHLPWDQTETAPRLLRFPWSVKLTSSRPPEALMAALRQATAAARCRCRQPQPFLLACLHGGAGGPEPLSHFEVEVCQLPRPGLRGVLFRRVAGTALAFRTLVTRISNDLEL
UniProt Q9HAZ1, sequence (whole entry, looked up): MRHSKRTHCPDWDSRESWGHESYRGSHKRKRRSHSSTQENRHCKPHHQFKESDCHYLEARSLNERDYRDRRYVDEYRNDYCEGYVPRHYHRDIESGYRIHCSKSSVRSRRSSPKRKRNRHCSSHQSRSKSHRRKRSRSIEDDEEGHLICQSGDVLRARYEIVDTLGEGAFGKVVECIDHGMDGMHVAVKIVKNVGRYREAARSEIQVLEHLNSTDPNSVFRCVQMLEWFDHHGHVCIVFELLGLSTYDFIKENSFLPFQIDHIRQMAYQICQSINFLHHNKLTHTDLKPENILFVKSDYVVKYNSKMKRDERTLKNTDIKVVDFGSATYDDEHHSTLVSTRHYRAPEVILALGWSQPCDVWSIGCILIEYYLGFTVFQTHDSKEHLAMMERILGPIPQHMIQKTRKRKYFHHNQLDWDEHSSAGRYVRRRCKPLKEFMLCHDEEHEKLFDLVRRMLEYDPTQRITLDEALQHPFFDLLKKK
UniProt Q9NY57, sequence (whole entry, looked up): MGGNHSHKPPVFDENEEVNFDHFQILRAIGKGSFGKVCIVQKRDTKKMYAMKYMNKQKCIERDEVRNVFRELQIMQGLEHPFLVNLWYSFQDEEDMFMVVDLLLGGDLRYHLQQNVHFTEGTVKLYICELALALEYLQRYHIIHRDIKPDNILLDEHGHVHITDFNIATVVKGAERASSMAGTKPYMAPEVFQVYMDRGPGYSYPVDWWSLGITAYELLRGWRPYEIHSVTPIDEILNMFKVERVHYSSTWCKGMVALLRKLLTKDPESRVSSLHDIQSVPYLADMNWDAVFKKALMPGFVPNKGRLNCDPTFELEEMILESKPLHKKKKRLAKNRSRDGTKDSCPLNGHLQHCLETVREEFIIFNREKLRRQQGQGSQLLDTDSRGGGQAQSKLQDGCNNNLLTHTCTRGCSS
UniProt Q86Z02, sequence (whole entry, looked up): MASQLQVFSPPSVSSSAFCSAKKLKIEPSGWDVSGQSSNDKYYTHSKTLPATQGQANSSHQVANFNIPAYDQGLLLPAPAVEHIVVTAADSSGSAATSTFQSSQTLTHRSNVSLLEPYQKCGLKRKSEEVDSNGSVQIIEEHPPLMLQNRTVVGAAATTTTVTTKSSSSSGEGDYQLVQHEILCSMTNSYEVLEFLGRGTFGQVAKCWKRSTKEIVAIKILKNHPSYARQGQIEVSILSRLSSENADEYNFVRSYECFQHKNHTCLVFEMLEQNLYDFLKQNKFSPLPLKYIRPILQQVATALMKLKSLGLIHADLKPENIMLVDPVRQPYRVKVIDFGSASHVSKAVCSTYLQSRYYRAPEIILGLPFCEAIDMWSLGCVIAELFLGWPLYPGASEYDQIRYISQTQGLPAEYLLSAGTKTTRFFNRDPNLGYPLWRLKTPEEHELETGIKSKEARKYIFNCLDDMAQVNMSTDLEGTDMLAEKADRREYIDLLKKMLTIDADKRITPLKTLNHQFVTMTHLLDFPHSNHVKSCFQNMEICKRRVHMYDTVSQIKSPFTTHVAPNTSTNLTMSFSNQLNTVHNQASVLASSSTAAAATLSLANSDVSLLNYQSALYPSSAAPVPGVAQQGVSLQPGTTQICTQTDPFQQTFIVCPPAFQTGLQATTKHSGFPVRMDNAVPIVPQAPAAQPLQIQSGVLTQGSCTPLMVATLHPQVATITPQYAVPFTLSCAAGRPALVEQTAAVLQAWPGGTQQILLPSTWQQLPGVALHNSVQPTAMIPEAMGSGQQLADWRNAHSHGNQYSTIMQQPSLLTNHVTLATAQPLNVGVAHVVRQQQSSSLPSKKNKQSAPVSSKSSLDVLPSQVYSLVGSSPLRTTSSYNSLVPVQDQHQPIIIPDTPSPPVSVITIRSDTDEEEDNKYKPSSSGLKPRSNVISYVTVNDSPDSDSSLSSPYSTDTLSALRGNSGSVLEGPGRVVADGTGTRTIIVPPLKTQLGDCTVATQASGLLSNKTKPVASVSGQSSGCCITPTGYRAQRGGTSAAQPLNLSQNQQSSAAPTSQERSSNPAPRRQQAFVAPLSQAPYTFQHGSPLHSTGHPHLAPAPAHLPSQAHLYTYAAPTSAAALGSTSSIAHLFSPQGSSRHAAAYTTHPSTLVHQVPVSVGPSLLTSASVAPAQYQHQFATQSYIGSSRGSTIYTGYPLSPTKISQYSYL
UniProt Q02750, sequence (whole entry, looked up): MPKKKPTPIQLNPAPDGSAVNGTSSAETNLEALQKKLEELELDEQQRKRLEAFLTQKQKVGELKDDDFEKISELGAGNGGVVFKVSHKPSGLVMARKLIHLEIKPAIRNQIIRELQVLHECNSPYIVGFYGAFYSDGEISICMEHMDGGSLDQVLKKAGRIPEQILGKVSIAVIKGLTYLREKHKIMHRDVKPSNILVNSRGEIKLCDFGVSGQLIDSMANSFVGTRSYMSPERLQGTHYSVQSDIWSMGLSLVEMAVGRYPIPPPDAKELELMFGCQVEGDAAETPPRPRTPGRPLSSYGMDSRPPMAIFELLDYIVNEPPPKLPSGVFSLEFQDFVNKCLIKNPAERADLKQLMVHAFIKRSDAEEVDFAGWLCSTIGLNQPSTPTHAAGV

Series 1
SMILES: CCC(=O)N[C@@H]1CC[C@H](C(=O)N(C)c2ccc(-c3nc4ccccc4o3)cc2)C1
Observed: cell-free assay
Method: competition with immobilised ligand
Concentration: 1 µM
| target | remaining binding |
| --- | --- |
| Homeodomain-interacting protein kinase 1 (HIPK1, Homo sapiens, UniProt Q86Z02) | 87% |
| Death-associated protein kinase 3 (DAPK3, Homo sapiens, UniProt O43293) | 100% |
| Receptor-type tyrosine-protein kinase FLT3 (FLT3, Homo sapiens, UniProt P36888) | 89% |
| Serine/threonine-protein kinase MARK2 (MARK2, Homo sapiens, UniProt Q7KZI7) | 100% |
| Serine/threonine-protein kinase Sgk2 (SGK2, Homo sapiens, UniProt Q9HBY8) | 100% |
| Serine/threonine-protein kinase 32B (STK32B, Homo sapiens, UniProt Q9NY57) | 71% |

Series 2
Structure (SMILES): CC(C)N(CCC(=O)c1ccc2ccccc2c1)Cc1ccccc1
Observed: enzyme activity
Mode: inhibitor
Concentration: 0.5 µM
Baseline: control
| target | remaining activity [%] |
| --- | --- |
| Ribosomal protein S6 kinase alpha-4 (RPS6KA4, Homo sapiens, UniProt O75676) | 109 |
| Discoidin domain-containing receptor 2 (DDR2, Homo sapiens, UniProt Q16832) | 92.5 |
| Rho-associated protein kinase 1 (ROCK1, Homo sapiens, UniProt Q13464) | 98.6 |
| Calcium/calmodulin-dependent protein kinase type 1B (PNCK, Homo sapiens, UniProt Q6P2M8) | 102 |
| Dual specificity mitogen-activated protein kinase kinase 1 (MAP2K1, Homo sapiens, UniProt Q02750) | 82.5 |
| Mitogen-activated protein kinase 1 (MAPK1, Homo sapiens, UniProt P28482) | 87.4 |
| Serine/threonine-protein kinase MARK2 (MARK2, Homo sapiens, UniProt Q7KZI7) | 97.9 |
| Serine/threonine-protein kinase DCLK2 (DCLK2, Homo sapiens, UniProt Q8N568) | 98.3 |
| Calcium/calmodulin-dependent protein kinase type IV (CAMK4, Homo sapiens, UniProt Q16566) | 98.3 |
| Myosin-IIIb (MYO3B, Homo sapiens, UniProt Q8WXR4) | 93.5 |
| MAP/microtubule affinity-regulating kinase 4 (MARK4, Homo sapiens, UniProt Q96L34) | 89.3 |
| Dual specificity protein kinase CLK3 (CLK3, Homo sapiens, UniProt P49761) | 99.6 |
| Mitogen-activated protein kinase 14 (MAPK14, Homo sapiens, UniProt Q16539) | 94.4 |
| Dual specificity protein kinase CLK4 (CLK4, Homo sapiens, UniProt Q9HAZ1) | 91.7 |

Series 3
Host: human
Sample: microsomes or S9
Concentration: 2 µM
Time: 0.5 h
| Structure (SMILES) | remaining compound [%] |
| --- | --- |
| Cc1ccccc1S(=O)(=O)Nc1ccc2nc(N3CCN(CC(=O)NC(C)(C)C)CC3)cc(C(=O)O)c2c1 | > 99 |
| O=C(c1ccc(-c2ncc[nH]2)s1)N1CC[C@@H](c2ccc(F)cc2)[C@H](O)C1 | 21.5 |
| Cc1ccccc1-c1nc2ccccc2cc1Cn1c2ccc(C(N)=O)cc2c2cnc(N)nc21 | 14.2 |
| O=C(C1CCCN(S(=O)(=O)c2cc(Cl)ccc2Cl)C1)N1CCCCC1 (centres unmarked) | 10.4 |
| COc1cc(Br)c(S(=O)(=O)NC2CCN(C(C)=O)CC2)cc1OC | 77 |

Series 4
Organism: Plasmodium berghei
Mode: inhibitor
Cell line: Huh-7
Strain: GFP-expressing sporozoites, liver stage
Concentration: 10 µM
Time: 24 h
Baseline: untreated control
| SMILES | infection rate |
| --- | --- |
| COC(=O)N/N=C/c1c[n+]([O-])c2ccccc2[n+]1[O-] | 117% |
| CCN1CCN(C(=O)N[C@@H](C(=O)N[C@@H]2C(=O)N3C(C(=O)O)=C(CSc4nnnn4C)CS[C@H]23)c2ccc(O)cc2)C(=O)C1=O | 96.8% |
| c1ccc(CN(CC2=NCCN2)c2ccccc2)cc1 | 83.6% |
| COc1cc2nc(N3CCN(C(=O)C4COc5ccccc5O4)CC3)nc(N)c2cc1OC (centres unmarked) | 57.2% |
